Assay results from different studies.
Each numbered part is a random draw from the data of one study; scales do not carry over between parts. Changes are numbered by the printed parent chain.

Set 1
Target: CCNE1, cyclin fold, Cln2 fusion (human)
Technique: yeast growth competition, sequencing
Matrix: yeast
Setting: strong parent motif
Baseline: not given
Reading: higher = stronger binding
Starting sequence: GMNC docking peptide (human); KNAKRNLSSEFAN
Variant	normalised enrichment score
S9Y	2.14
L7F	0.321
R5S	0.251
F11L	0.961
R5E	0.194

Set 2
Target: Histone acetyltransferase KAT6A, winged helix 1, GST fusion (KAT6A, Homo sapiens, UniProt Q92794, residues 1-85)
Technique: protein binding microarray
Form: double-stranded DNA, one strand shown
Matrix: in vitro
Tested at: not given
Setting: 8-mer, flanks averaged, mean of 2 arrays, mostly near background
Baseline: not given
Reading: higher = stronger binding
Residues (chain): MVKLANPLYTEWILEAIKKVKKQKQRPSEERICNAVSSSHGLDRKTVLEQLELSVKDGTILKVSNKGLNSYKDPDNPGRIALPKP
Oligonucleotide	E-score
AGAGGGTG	-0.105
ATACACTA	-0.166
CACAAAAG	-0.189
TCGATCCA	-0.0401
AATGTTCC	-0.0501
GCTGAGTA	-0.162
GTGTAACA	-0.0609
CCCCGGGG	0.374
AACCAAAT	-0.171
ATACAGAT	-0.137

Set 3
Target: Interferon regulatory factor 3, full length, phosphomimetic (IRF3, Homo sapiens, UniProt Q14653, residues 1-427, S386D/S396D/S398D/S402D/T404D/S405D)
Sequence of UniProt Q14653 (whole entry, unmodified, looked up): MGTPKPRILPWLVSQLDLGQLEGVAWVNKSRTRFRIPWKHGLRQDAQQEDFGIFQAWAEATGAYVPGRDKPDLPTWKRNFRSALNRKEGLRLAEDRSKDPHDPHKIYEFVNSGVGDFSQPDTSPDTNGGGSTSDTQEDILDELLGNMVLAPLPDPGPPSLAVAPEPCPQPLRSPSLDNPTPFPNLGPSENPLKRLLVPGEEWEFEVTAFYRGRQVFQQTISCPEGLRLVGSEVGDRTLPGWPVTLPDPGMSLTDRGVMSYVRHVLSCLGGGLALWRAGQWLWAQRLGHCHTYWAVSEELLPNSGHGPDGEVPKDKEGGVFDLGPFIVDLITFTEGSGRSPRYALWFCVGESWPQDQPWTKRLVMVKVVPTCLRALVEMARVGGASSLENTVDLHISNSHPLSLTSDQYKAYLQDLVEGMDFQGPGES
Technique: protein-binding microarray
Form: double-stranded DNA, one strand shown
Matrix: in vitro
Tested at: 2540 nM top
Setting: 60-bp whole probe
Added: salmon DNA 0.4 mg/ml
Baseline: random background probes
Reading: higher = stronger binding
Constant ends, left off below: GCCTAGCAC … GTCTTGATTCGCTTGACGCTGCTG
Oligonucleotide	fitted relative affinity [z-score]
GTAGGACTGGACACTGGGTTAGTGCTA	-1.1
GACGAATTGAGACTGGAGACGTGCTAG	-0.173
GACGGACTGGGCCTCGGGACGTGCTAG	-1.05
TCATATTTAAGAACTATGACTGTGCTA	0.577
TTGCTTGTGTTTATTGTGACGTGCTAG	-0.387
TTAGATCTCAGTTTCAATTAGTGCTAG	1.71
GACCGTTTCGACTTTCGGGACGTGCTA	4.09
TCATTTTCATTTTCCAAACTGTGCTAG	5.71
AACCATTTTGTTTTTCATTAGTGCTAG	2.11
GACGAACTGAGTATCTAGACGTGCTAG	-0.159

Mixed results
Molecule	target	test	test system	conditions	how to read	measurement	value
PhoQ, residues 284 288 289 292 302 303 AANNSF	PhoP, residues 12 14 15 18 19 GMGLL (Escherichia coli, UniProt P23836)	Sort-seq, refers to: YFP reporter	E. coli	PhoQ-PhoP variant library, added: 10 µM Mg2+	baseline: high Mg2+ state, higher = stronger signaling	fold induction	1.53

Excerpt of the above (set 3):
Oligonucleotide	fitted relative affinity [z-score]
TTGCTTGTGTTTATTGTGACGTGCTAG	-0.387
